Measured values collected from several papers.
Each numbered part is a random draw from the data of one study; scales do not carry over between parts. Substitutions count along the parent as printed.

Series 1
Target: Prothrombin, mature alpha-thrombin (F2, Homo sapiens, UniProt P00734)
Method: aptamer microarray, sandwich
Form: DNA with 2'F-ANA
Medium: in vitro
Tested at: 200 nM
Setting: whole 15-mer aptamer, many near background
Added: Cy3 exosite-II aptamer, 400 nM
Direction: higher = stronger binding
Endpoint: mean fluorescence intensity
Strand: GGTTGGTGTGGTTGG
2'F-ANA at 1 4 6 7 8 12 14 15: 67.3 a.u.
2'F-ANA at 2 5 7 8 12 13 15: 122 a.u.
2'F-ANA at 1 2 4 7 10 11: 48.8 a.u.
2'F-ANA at 2 3 4 5 6 7 8 10 11 15: 50.6 a.u.
2'F-ANA at 2 4 5 6 10 13: 124 a.u.
2'F-ANA at 5 6 7 8 9 10 11 14 15: 47 a.u.
2'F-ANA at 3 4 8 10 11 12 13 14 15: 167 a.u.
2'F-ANA at 7 8 9 11 13: 477 a.u.
2'F-ANA at 2 3 9 10 11 14: 291 a.u.
2'F-ANA at 2 4 6 7 8 10 12 14 15: 101 a.u.
2'F-ANA at 1 3 4 5 6 7 9 12 13: 69.9 a.u.
2'F-ANA at 1 2 3 6 9 10 11 12 15: 74.4 a.u.
2'F-ANA at 1 2 3 5 6 7 8 9 10 11 12 14 15: 52.2 a.u.
2'F-ANA at 1 2 3 6 8 9 12: 435 a.u.

Series 2
Target: RNA binding protein fox-1 homolog 2, RRM domain, GST-SBP tag (RBFOX2, Homo sapiens, UniProt O43251-10, residues 100-194)
Method: RNA Bind-n-Seq
Form: RNA
Medium: in vitro
Tested at: 365 nM
Setting: natural RNA segment, single round, ends assumed
Relative to: no-protein control
Direction: higher = stronger binding
Endpoint: RBNS enrichment (R)
Constant ends, left off below: GGGAGUUCUACAGUCCGACGAUC … UGGAAUUCUCGGGUGCCAA
Target sequence (chain): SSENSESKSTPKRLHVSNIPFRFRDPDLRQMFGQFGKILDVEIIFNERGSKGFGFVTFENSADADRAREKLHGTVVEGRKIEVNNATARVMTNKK
AGCUGCUGCAGACAAAAGAUCACAUUUCUGGGAAGAUGAGAACUUGUUUCCAGACCAGCAUCCAGUGGCCAUCAGGUCUUGUGGCCCAAAGGCUAUGCUUGCCUCCGGCU: 0.524
GAGAGGACAGUUCUUAGUCCAAUAAAAAUAUGCAGAUUGUAUGUAAUGAAAUUUUGUAAGCACAGGUAAUUUCUGUCAGAUGUAUUCUUAAACUUUUUAAUAUGUUGGGA: 0.753
GAGCCUAUUUCACAUUCUCAGACUUUUAGUUUCUGCUUUAUAACCGCAUUUAAAAUGUAUUCUUAAUGUGCUGUAGUGUGUGUGAGCCGGUGUCCAGAGGUGUGAAAUAU: 0.541
ACUGAUGACUUGUGUGCAAACAAGUGUUUAUCCGGGUUGCAUUAUCCAAACUGGUUUGUUAAAAACUCUAGGUCACAUUCUUACACUAAGAAAAACAGUUAACAUGAGAC: 0.265
AGGCUCUUUUCAAUUGACUGAUGCUGGGGCCUUCAGUUUUAUUCUCAGUAUAGAUUGCCAGUAUUGUUAAGAGUAUCCAAAGGCCUUUCUAGAUGGAGACAGAAUAACUG: 1.76
AAUCAGGUAGGAAAUCACCUUUGACUUAGCUUCCAGUAGUCAUUACCACCUUUUACUGCACAAUUCACAAGCAUGUUUUCCUGGUGAAUUGGACUGAAAAUUACAUUUUG: 11.7
CAAUUGUGGCACUUGGGGCACCUUGCUCCUCCUUCUGCUGCUGCCCCCACCUCUGCUGCCUCCCUCUGCUGUCACCUUGCUCAGCCAUCCCGUCUUCUCCAACACCACCU: 0.52
ACAAAGCCACAGUUUAACUGUCUGCAACAGUUGGUUUAUGUUAAUGAUAGACAAAUACCCAGUGUUUGUUACUUUUUCCAACUACCACUGUAAUGAUAAUCUUUCUCACG: 0.226
GGGAGAGAGGGAUGGUUUCUGAGGGGUUCUGAAAGUAUGAUUCAAUGUGCAACAUACAGGUAGGUCUUCAGCAUAAGCUGAAAUAUAUGCAUGUAAAAACUUUGACAUCU: 3.06
GAAUUACAUUUUCAAAAAAAGGUUUUUAUAAUGAAGUUGUUUAUUAAAAACUUCUGAAUGAUGUGUUGGGAGUUGUGAACCUGUCUGAUUGGGAAACGGUUGGAGAGAGC: 0.811
UCUUAGGGUGCCUGCCUCUGCCAUGGCAUCCUGUCCCUUUCCCAUGUGCUCGGUGUUCAGUGGUGUAUAUUUCUUCUCCCAGACAUGGGGCGUGUGCCCCAAGGGGUCUG: 0.486
AAAGCAAAUAUAUUUAGGCCAGGGUCUCACUGAGGGGGAGCUGUCUUGUCAUCUUUUAGAGUAAACUAUUCUAUAAACAUAUGCAAACAGCCCUAAAUAAAUCUAAAGUC: 0.485

Series 3
Target: Sal-like protein 4, full length isoform A (SALL4, Homo sapiens, UniProt Q9UJQ4, residues 1-1053)
Chain of UniProt Q9UJQ4 (whole entry, looked up): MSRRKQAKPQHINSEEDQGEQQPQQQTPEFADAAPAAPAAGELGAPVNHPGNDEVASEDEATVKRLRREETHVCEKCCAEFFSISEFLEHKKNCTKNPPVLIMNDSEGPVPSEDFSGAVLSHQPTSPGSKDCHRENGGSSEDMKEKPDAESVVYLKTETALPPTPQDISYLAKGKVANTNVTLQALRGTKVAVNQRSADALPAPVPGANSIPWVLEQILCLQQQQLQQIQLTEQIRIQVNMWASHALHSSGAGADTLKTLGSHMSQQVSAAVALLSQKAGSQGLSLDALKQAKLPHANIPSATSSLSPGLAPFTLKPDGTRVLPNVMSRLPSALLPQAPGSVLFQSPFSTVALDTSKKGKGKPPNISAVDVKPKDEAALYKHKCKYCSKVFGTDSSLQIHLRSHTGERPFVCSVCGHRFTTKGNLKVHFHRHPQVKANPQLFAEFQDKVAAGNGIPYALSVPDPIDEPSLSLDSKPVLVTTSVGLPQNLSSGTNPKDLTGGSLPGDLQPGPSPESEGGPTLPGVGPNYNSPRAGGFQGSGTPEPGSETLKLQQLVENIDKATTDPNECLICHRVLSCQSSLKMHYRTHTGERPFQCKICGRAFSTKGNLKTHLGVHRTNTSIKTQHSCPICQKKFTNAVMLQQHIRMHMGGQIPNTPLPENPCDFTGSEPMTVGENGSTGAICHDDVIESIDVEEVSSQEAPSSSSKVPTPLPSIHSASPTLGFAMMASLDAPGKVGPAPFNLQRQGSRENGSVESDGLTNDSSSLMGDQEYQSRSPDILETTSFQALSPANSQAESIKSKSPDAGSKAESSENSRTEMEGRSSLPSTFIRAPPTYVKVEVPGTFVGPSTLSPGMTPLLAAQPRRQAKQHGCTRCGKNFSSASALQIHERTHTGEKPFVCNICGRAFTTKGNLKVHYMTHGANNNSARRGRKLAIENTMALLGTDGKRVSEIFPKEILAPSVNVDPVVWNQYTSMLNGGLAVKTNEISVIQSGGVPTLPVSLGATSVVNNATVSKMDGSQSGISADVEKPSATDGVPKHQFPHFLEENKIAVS
Method: universal PBM
Form: double-stranded DNA, one strand shown
Medium: in vitro
Tested at: 600 nM
Setting: 8-mer, flanks averaged, mean of replicates
Direction: higher = stronger binding
Endpoint: E-score
CCATTAGA: -0.0891
CTTGTGCA: 0.0326
AATCTGAC: 0.0869
TGAATGAA: 0.218
CTACTACA: 0.221
CCACACGG: -0.237
ACAGGGCC: -0.256
ATGCCCCG: -0.342
CGAATAGC: 0.0715
AGATCGAA: 0.143
ACGTAGGA: 0.108
AGCAATCC: -0.121
ACGTTATC: 0.112
ATCTCCAC: -0.197
ATGTTCTG: 0.0575
ATGAGAAA: 0.265
CACAGCCG: -0.236
CACCGGCC: -0.435
CATGAATC: 0.0554
AGCAGTGC: -0.172
GTGACCAA: 0.13

Series 4
Target: RING finger protein unkempt homolog, zinc fingers 1-6, GST-SBP tag (UNK, Homo sapiens, UniProt Q9C0B0, residues 30-357)
Chain of UniProt Q9C0B0 (30-357, looked up): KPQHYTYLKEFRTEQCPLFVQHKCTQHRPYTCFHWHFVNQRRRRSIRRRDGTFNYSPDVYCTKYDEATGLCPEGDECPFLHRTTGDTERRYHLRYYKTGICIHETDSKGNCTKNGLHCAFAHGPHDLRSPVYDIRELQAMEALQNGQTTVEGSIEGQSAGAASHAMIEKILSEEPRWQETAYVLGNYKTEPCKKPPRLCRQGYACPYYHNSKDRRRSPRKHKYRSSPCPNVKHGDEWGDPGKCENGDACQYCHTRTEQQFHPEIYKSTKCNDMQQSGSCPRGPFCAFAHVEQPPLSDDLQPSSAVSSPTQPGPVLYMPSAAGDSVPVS
Method: RNA Bind-n-Seq
Form: RNA
Medium: in vitro
Tested at: not given
Setting: RNA with constant flanks, ends assumed
Relative to: input RNA pool
Direction: higher = stronger binding
Endpoint: bound/input enrichment
Constant ends, left off below: GGGAGUUCUACAGUCCGACGAUC … CAACAGAGGAUUGAGCAUCA
ACUUGUUCACUGGAUUGUCUGGGAUGACUUGGGCUCAUAUCCACAAUACUUGGUAUAAGGCCGCCGAUUGUUGGGGGUGGGGAGGGAGGGAUCUAGGAUACAGGGCAGGGAUAAAUACAG: 13.4 ratio
GGGUGGUGGGUGUGUGUGUGUGUGUGUGUGUGUGUGUGUGUGUGUGUGUUUGGCUGUGGGUCCGUUGUGCCGUUCUGCUGGAACACCGUGGGAAGGCAGUAGACGCGGGCAGUCAGCUAG: 0.531 ratio
UUGGAAUUAAUAAAGCAGUUGACAUUCACUGUUAGUUACAGCAACAUACUGUGAUUUUUAAUCCGACCGUAAUUCAGAUUUAUUACUCUAUGAAAUUCUGUCUUUUGACACCAUAGUGCC: 0.251 ratio
CAUAGAAUUUAUACUGCUGAGCUGGCACACAUUUACUUUAGGAAACCUAACUGGAAAUGUCCGGUGAGGAACAGAACUGGAGAAUUCAAAAGUGACAUUUUUGUAGCCAACCUCAGUAUA: 1.76 ratio
AACAAGACAGACUUGCUUGAGGAGAAGGUGCAAAUUGUGAGCAUCAAAGACUAUUUCCCCGAAUUUGAAGGGGAUCCCCACUGCUUAAGAGACGUCCAAAAAUUCCUGGUGGAAUGUUUC: 0.168 ratio
AGGACAGUGCAGAAUUAAACCGUGUUGAAGACCAGUGGAAAUUGUAUAAUUUAACUUGGAUUCCGGCAGGAAGUGAAAUAUGGGAGGAGUAAAGAAAACUGAAGAAUUUAAAGUUUUCCU: 0.367 ratio

Series 5
Target: Hepatocyte nuclear factor 3-beta, forkhead domain (FOXA2, Homo sapiens, UniProt Q9Y261, residues 142-269)
Method: protein-binding microarray
Form: double-stranded DNA, one strand shown
Medium: in vitro
Tested at: not given
Setting: k-mer, scored over probes, only values ≥0.25
Direction: higher = stronger binding
Endpoint: E-score
Residues (chain): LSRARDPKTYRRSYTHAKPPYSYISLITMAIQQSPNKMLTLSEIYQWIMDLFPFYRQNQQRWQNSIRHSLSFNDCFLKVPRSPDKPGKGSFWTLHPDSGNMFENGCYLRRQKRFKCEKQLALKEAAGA
AGTTATTA: 0.255
ATGAACAT: 0.283
ATTGTCTA: 0.309
GTGGTATA: 0.308
TCTATTCA: 0.258
TGTAACAA: 0.286
AATACAGC: 0.257
ACTAACAG: 0.285
AATTATCA: 0.355
TCATTAAA: 0.286
TCATAACA: 0.349
TACATATA: 0.48

Series 6
Target: CCNB1, cyclin fold, Cln2 fusion (human)
Method: yeast growth competition, sequencing
Medium: yeast
Setting: weak parent motif
Relative to: not given
Direction: higher = stronger binding
Endpoint: normalised enrichment score
Starting sequence: WEE1 docking peptide (human); HKTFRKLRLFDTP
H1M: -0.309
L7I: 0.975
L7A: 0.117
H1F: -0.426
T12H: 1.02
H1Y: 0.392
D11N: -0.614
K2A: -0.105
P13S: 0.282
F10T: 0.47
F4Q: 0.0555
K2D: 0.978
D11F: 0.347
L9V: 0.624
K6L: -0.914
T12A: 0.125
F10I: 0.659
R8S: 0.021
F10H: 0.613
R5Q: 0.451
L9I: -0.298

Series 7
Target: Histone acetyltransferase KAT6A, winged helix 1, GST fusion (KAT6A, Homo sapiens, UniProt Q92794, residues 1-85)
Method: protein binding microarray
Form: double-stranded DNA, one strand shown
Medium: in vitro
Tested at: not given
Setting: 8-mer, flanks averaged, mean of 2 arrays, mostly near background
Relative to: not given
Direction: higher = stronger binding
Endpoint: E-score
Construct (chain): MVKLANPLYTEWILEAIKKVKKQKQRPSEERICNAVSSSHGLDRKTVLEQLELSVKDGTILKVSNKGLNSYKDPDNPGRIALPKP
AAGATATT: -0.23
GCAAGCGC: 0.35
ACTCCATC: -0.0672
CCGCACGC: 0.377
CGAGGCTC: 0.139
AAGTTTGA: 0.00973
CAATTAGG: -0.168
AACGATTC: -0.0833
AAATCGAA: -0.155
CCTTGTAC: -0.126
CCATCCTA: -0.23
ATTGCGCA: 0.275
ATGGGCAG: -0.0813
AGTGATCC: -0.0221
AGATTAGC: -0.0942
AAAGAATT: -0.103
CGGAGTCA: 0.197
AGGTGCGA: -0.0793
AACATATG: -0.0705
CGCCTTGC: 0.046
CTATTCAG: -0.186
AAGGAATT: -0.0929

Series 8
Target: Eukaryotic initiation factor 4A-I (EIF4A1, Homo sapiens, UniProt P60842, residues 1-406, full length assumed)
Chain of UniProt P60842 (whole entry, looked up): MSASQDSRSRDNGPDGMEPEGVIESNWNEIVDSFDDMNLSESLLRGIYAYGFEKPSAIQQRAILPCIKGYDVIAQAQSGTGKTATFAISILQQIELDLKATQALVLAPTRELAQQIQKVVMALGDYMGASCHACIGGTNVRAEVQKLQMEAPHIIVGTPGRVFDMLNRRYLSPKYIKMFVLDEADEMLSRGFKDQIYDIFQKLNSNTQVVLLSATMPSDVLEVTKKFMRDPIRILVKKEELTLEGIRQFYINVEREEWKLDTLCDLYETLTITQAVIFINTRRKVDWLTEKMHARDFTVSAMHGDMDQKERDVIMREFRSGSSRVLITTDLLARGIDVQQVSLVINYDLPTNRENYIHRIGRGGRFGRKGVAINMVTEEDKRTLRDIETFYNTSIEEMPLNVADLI
Method: RNA Bind-n-Seq
Form: RNA
Medium: in vitro
Tested at: 90 pmol
Setting: 4-mer, random 30-nt RNA, single round
Added: 3 µM iPr-DMDA-PatA, 2 mM ADP, 2 mM phosphate
Relative to: input library
Direction: higher = stronger binding
Endpoint: 4-mer enrichment
AGUU: 1.13 fold
CAGC: 0.834 fold
AGCG: 0.891 fold
GUCC: 0.879 fold
CACA: 1.08 fold
UACU: 1.1 fold
UAAU: 1.32 fold
UCGA: 1.19 fold
CCCA: 1.02 fold
AUUG: 1.07 fold
CCAU: 0.973 fold
AGGU: 0.962 fold
GGGA: 0.748 fold
CUAA: 1.21 fold
CAGG: 0.843 fold
CAAG: 1.14 fold
UCGG: 0.777 fold

For quick reference, copied from above (series 1):
2'F-ANA at 1 4 6 7 8 12 14 15: 67.3 a.u.
2'F-ANA at 2 5 7 8 12 13 15: 122 a.u.
2'F-ANA at 1 2 4 7 10 11: 48.8 a.u.
2'F-ANA at 2 3 4 5 6 7 8 10 11 15: 50.6 a.u.
2'F-ANA at 2 4 5 6 10 13: 124 a.u.
2'F-ANA at 5 6 7 8 9 10 11 14 15: 47 a.u.
2'F-ANA at 3 4 8 10 11 12 13 14 15: 167 a.u.
2'F-ANA at 7 8 9 11 13: 477 a.u.
2'F-ANA at 2 3 9 10 11 14: 291 a.u.
2'F-ANA at 2 4 6 7 8 10 12 14 15: 101 a.u.
2'F-ANA at 1 3 4 5 6 7 9 12 13: 69.9 a.u.
2'F-ANA at 1 2 3 6 9 10 11 12 15: 74.4 a.u.
2'F-ANA at 1 2 3 5 6 7 8 9 10 11 12 14 15: 52.2 a.u.
2'F-ANA at 1 2 3 6 8 9 12: 435 a.u.
